Experimental data collected from several papers.
Compare with care: the assays were run in different laboratories. Several values in a cell are separate wells, animals, samples, runs or records. ± gives the spread as reported.

COc1c(O)cc2c(c1O)C(=O)c1c(cc(C)c(O)c1OC)C2=O
cell viability (HepaRG co-cultured with HK-2; MTT; 266.67 µM, 48 h; baseline: untreated control): 5.61 ± 2.04%

CC(=O)N(C)[C@H]1CCN(C(=O)c2cnc3c(c2)C[C@](C)(c2ccc(F)cc2)N3)C1
alanine aminotransferase (human; dose not given): 196 U/L

CC(C)c1nc(N(C)S(C)(=O)=O)nc(-c2ccc(F)cc2)c1/C=C/[C@@H](O)C[C@@H](O)CC(=O)O
subjects with adverse event (refers to: arthropod bite; healthy men; oral, dose not given, 8 days, treatment-emergent, crossover trial): 0%

C[C@H](NC(=O)/C(C#N)=C/c1cccc(Br)n1)c1ccccc1
AUC(all) (LC-MS/MS; patients, plasma; oral, 4 mg/kg, cycle 1 day 1): 93.5 ng·h/mL

C[C@@H]1CN(c2c(F)c(N)c3c(=O)c(C(=O)O)cn(C4CC4)c3c2F)C[C@H](C)N1
amount permeated (starch gel membrane permeability; Gram-negative envelope surrogate; 200 µM, 20 min, pH 7.4): 0.56 nmol

C[C@@H](c1nc(-c2ccc(C#N)cc2)cs1)[C@](O)(Cn1cncn1)c1cc(F)ccc1F
subjects with adverse event (headache; human; oral, dose not given, added: ethinyl estradiol/norethindrone): 8.7%

CN[C@H](CC(C)C)C(=O)N[C@H]1C(=O)N[C@@H](CC(N)=O)C(=O)N[C@H]2C(=O)N[C@H]3C(=O)N[C@H](C(=O)N[C@H](C(=O)O)c4cc(O)cc(O)c4-c4cc3ccc4O)[C@H](O)c3ccc(c(Cl)c3)Oc3cc2cc(c3O[C@@H]2O[C@H](CO)[C@@H](O)[C@H](O)[C@H]2O[C@H]2C[C@](C)(N)[C@H](O)[C@H](C)O2)Oc2ccc(cc2Cl)[C@H]1O
elimination rate constant (C57BL/6N mouse H1, faeces; po, 0.5 mL, 20 mg/mL solution): 0.16 h⁻¹

Cc1cc(-c2nnc(N)nc2-c2ccc(F)cc2)cc(Cl)n1
incidence of AE, immune-mediated, treatment-related (refers to: psoriasiform dermatitis, grade ≥ 3; male IO-naive mCRPC patients; oral, dose not given): 0%

C[C@H]1CN(C(=O)CC#N)[C@]12CCN(c1ncnc3[nH]ccc13)C2
participants with catheter site bruise (human; oral, 12 mg single dose): 0%

C[C@@H](Oc1ccc(S(C)(=O)=O)cc1C(=O)N1C[C@@H]2C[C@]2(c2cc(C(F)(F)F)on2)C1)C(F)(F)F
exposure increase (healthy human volunteers; oral, 10 mg single dose, added: fed state; baseline: fasted state): < 20%

CC(C)NCCCC[C@@H]1NC(=O)[C@H](Cc2ccc(O)cc2)NC(=O)[C@H](Cc2ccccc2)NC(=O)CC[C@H](C(=O)N[C@@H](CCCCNC(C)C)C(=O)N[C@@H](CCCCNC(=O)[C@H](CCC(=O)O)NC(=O)[C@H](CCC(=O)O)NC(=O)[C@H](CCC(=O)O)NC(=O)CN2CCN(CC(=O)O)CCN(CC(=O)O)CCN(CC(=O)O)CC2)C(N)=O)NC(=O)CNC(=O)[C@H](Cc2ccc3ccccc3c2)NC(=O)[C@@H](CCCNC(=N)N)NC1=O [gallium-68 labelled]
tissue uptake (mouse with Daudi xenograft, muscle; intravenous, 2 h): 0.04 %ID/g

Cc1nc(-c2ccc(OCC(C)C)c(C#N)c2)sc1C(=O)O
body weight (KM mouse, chronic hyperuricaemia model; dose not given, day 23): 32.4 g and 38.8 g and 34.3 g and 43.3 g and 36.7 g and 40.5 g

Cc1ccc([C@@H]2O[C@H](CO)[C@@H](O)[C@H](O)[C@H]2O)cc1Cc1ccc(-c2ccc(F)cc2)s1
urinary sodium excretion change (Japanese type 2 diabetes patients; 200 mg, day 17, 24 h urine collection; baseline: baseline): -14.6 mEq

CCc1nc(C(N)=O)c(Nc2ccc(N3CCC(N4CCN(C)CC4)CC3)c(OC)c2)nc1NC1CCOCC1
accumulation ratio (AUC) (Japanese patients, plasma; oral, 40 mg, cycle 1 day 28, multiple doses, mean; baseline: single dose): 5.86

O=C(COc1ccc(Cl)cc1)NC12CC(c3nnc([C@H]4C[C@@H](OC(F)(F)F)C4)o3)(C1)C2
postural dizziness participants (human both sexes; oral, 400 mg single dose): 16.7%

CC(C)(C(=O)N1CCOc2c(C#N)cncc2C1)C(F)F
subjects with adverse event (refers to: disturbance in attention; human; oral, 20 mg once daily, 14 days, multiple ascending dose): 0%

O=C(Nc1nc2cccc(-c3ccc(CN4CCS(=O)(=O)CC4)cc3)n2n1)C1CC1
treatment-emergent adverse events (refers to: infections and infestations; human rheumatoid arthritis patients; oral, 200 mg once daily, 4 weeks, regardless of relatedness): 0%

O=C(N[C@H](CO)[C@H](O)c1ccc([N+](=O)[O-])cc1)C(Cl)Cl
amount permeated (starch gel membrane permeability; Gram-negative envelope surrogate; 200 µM, 30 min, pH 7.4): 2.56 nmol

CC(C)c1nc(N(C)S(C)(=O)=O)nc(-c2ccc(F)cc2)c1/C=C/[C@@H](O)C[C@@H](O)CC(=O)O
peripheral volume of distribution (population pharmacokinetic model; people living with HIV; oral, dose not given): 1660 L

O=C(O)CCCOc1ccc([18F])cc1-c1cc(-c2ccccc2C(F)(F)F)n(-c2ccccc2)n1
radioactivity uptake (gamma counting; male ddY mice, lung; intravenous, 2.1 MBq, 5 min): 0.64 ± 0.1 SUV

CC(C)n1c(Nc2cccnc2)nc2cnc(Nc3ccc(N4CCN(C)CC4)cc3)nc21
subjects with TEAE (refers to: cardiac disorders (SOC); healthy human, male; oral, dose not given, CTCAE grade 1-3): 4.8%

O=C(O)[C@H]1O[C@@H](Oc2ccc(/C=C\c3cc(O)cc(O)c3)cc2)[C@H](O)[C@@H](O)[C@@H]1O
samples above LOQ (human, plasma): 100%

C[C@@H]1CCO[C@H]2Cn3cc(C(=O)NCc4ccc(F)cc4F)c(=O)c(O)c3C(=O)N12
AUC(0-24) (human paediatric patients, weight 6 to under sample A kg, plasma; oral, 8 mg granules, steady state, geometric mean, population PK post-hoc, N 2): 34100 ng·h/mL

N#Cc1ccc2c(c1)[C@H]1CCCN(C(=O)c3ccc4[nH]cnc4c3)[C@H]1C2
pre-dose plasma concentration (human, plasma; 20 mg once daily, day 14): 474 nmol/L

Cc1nc(-c2cnc(NC(C)C)n(C)c2=O)ccc1Oc1ccnc(-c2cnn(C)c2)c1
apparent volume of distribution (Beagle dog, male, plasma; oral, 3 mg/kg, crossover study, mean): 6.57 L/kg

CO[C@H]1/C=C/O[C@@]2(C)Oc3c(C)c(O)c4c(O)c(c(/C=N/N5CCN(C)CC5)c(O)c4c3C2=O)NC(=O)/C(C)=C\C=C\[C@H](C)[C@H](O)[C@@H](C)[C@@H](O)[C@@H](C)[C@H](OC(C)=O)[C@@H]1C
amount permeated (starch gel membrane permeability; Gram-negative envelope surrogate; 200 µM, 60 min, pH 7.4): 2.22 nmol

Cn1cc(Nc2nc(N)nc(-c3cccc(-n4ccc5cc(C6CC6)cc(F)c5c4=O)c3CO)n2)cn1
drug-related nausea incidence (healthy humans, fed; oral tablet, 50 mg twice daily (multiple dose), 14 (unit not given); baseline: subjects): 0%

O=C(O)CCc1nc(-c2ccccc2)c(-c2ccccc2)o1
metabolic activity (COS-7; WST-8; 100 µM, 24 h, 0.1% DMSO, unit not given; baseline: control): 0.85 ± 0.1

Cc1cccc(CNC(=O)c2cn(CCNC(=O)c3ccccc3Sc3c([N+](=O)[O-])ncn3C)c3cc4c(cc3c2=O)OC(F)(F)O4)n1
Tmax (Sprague-Dawley rat, male, plasma; intramuscular, 10 mg/kg of parent drug): 4.98 min

Cc1c(Cl)c(C)[n+]([O-])c(Cl)c1-c1noc(-c2cc(O)c(O)c([N+](=O)[O-])c2)n1
TEAE leading to discontinuation (healthy Chinese subjects; oral, 25 mg): 0%

O=C(O)[C@H]1O[C@@H](Oc2cc(-c3oc4cc(O)cc(O)c4c(=O)c3O)ccc2O)[C@H](O)[C@@H](O)[C@@H]1O
plasma concentration (human plasma; mean): 105 nM

Cc1ccc(Sc2ccccc2N2CCNCC2)c(C)c1
participants with TEAE (refers to: ALT increased; healthy adult men; oral, 20 mg daily, 12 days): 16.7%

C=CC[C@@H]1/C=C(\C)C[C@H](C)C[C@H](OC)[C@H]2O[C@@](O)(C(=O)C(=O)N3CCCC[C@H]3C(=O)O[C@H](/C(C)=C/[C@@H]3CC[C@@H](O)[C@H](OC)C3)[C@H](C)[C@@H](O)CC1=O)[C@H](C)C[C@@H]2OC
plasma total Ca2+ (Wistar Kyoto rat, male, plasma; ip, 0.5 mg/kg/day, day 28, at sacrifice): 2.7 ± 0.04 mmol/L

O=C(CCc1ccc(O)cc1)c1c(O)cc(O)cc1O
plasma concentration (human plasma; mean, both sexes): 5780 nM

COc1cc([C@H]2Oc3ccc([C@H]4Oc5cc(O)cc(O)c5C(=O)[C@@H]4O)cc3O[C@@H]2CO)ccc1O
AUC(0-4h) (OATP1B1/1B3 humanized mice, plasma; oral gavage, 500 mg/kg silymarin, geometric mean): 0.24 µM·h

CCN(Cc1ccc(F)cc1)c1ccc(CO)c(Cl)c1
ALT (F344 rat, male, serum; oral, 100 mg/kg/day, 2 days): 846 U/L and 64 U/L and 326 U/L

COc1ccc2c(c1)CN(C(=O)CCN1CCC(Cc3ccccc3)CC1)CC[S@@+]2[O-]
systolic blood pressure (telemetry; conscious male beagle dogs; intravenous, NG, 2 h): 143 ± 19 mmHg

Cc1ccc(C(=O)N(CCCN)C(c2nc3snc(C)c3c(=O)n2Cc2ccccc2)C(C)C)cc1 (centres unmarked)
C24h (patients, plasma; intravenous, 16 mg/day, 24 h, first induction course, geometric mean): 23.3 ng/mL

N#Cc1ccc2c(c1)[C@H]1CCCN(C(=O)c3ccc4[nH]cnc4c3)[C@H]1C2
ACTH level change (human; 240 mg, day 7; baseline: baseline): -0.8 pmol/L

Cc1c2oc3c(C)ccc(C(=O)N[C@@H]4C(=O)N[C@H](C(C)C)C(=O)N5CCC[C@H]5C(=O)N(C)CC(=O)N(C)[C@@H](C(C)C)C(=O)O[C@@H]4C)c3nc-2c(C(=O)N[C@@H]2C(=O)N[C@H](C(C)C)C(=O)N3CCC[C@H]3C(=O)N(C)CC(=O)N(C)[C@@H](C(C)C)C(=O)O[C@@H]2C)c(N)c1=O
minimum plasma concentration (LC-MS; children with cancer, plasma; dose not given, 26 h): 0.7 µg/L

CO[C@H]1C[C@@H]2CC[C@@H](C)[C@@](O)(O2)C(=O)C(=O)N2CCCC[C@H]2C(=O)O[C@H]([C@H](C)C[C@@H]2CC[C@@H](O)[C@H](OC)C2)CC(=O)[C@H](C)/C=C(\C)[C@@H](O)[C@@H](OC)C(=O)[C@H](C)C[C@H](C)/C=C/C=C/C=C/1C
rectal temperature (healthy adult horses; intravenous, 0.06 mg/kg, 2 h): 37.3 ± 0.3 °C

O=S(=O)(O)Oc1cc(O)cc(/C=C/c2ccc(O)cc2)c1
samples above LOQ (human, cerebrospinal fluid): 0%

COC(=O)c1cn(C)c2ccc(-c3cccnc3)cc12
necrotic cells (COS-7; 30 µM, 24 h, 0.1% DMSO, unit not given; baseline: vehicle control): 0.76 ± 0.23

O=C(O)c1cc(O)c(O)c(O)c1
plasma concentration (human plasma; mean, both sexes): 19 nM

COc1ccc2[nH]c([S+]([O-])Cc3ncc(C)c(OC)c3C)nc2c1 (centres unmarked)
R/S enantiomer ratio (human male, dried plasma spots; oral, dose not given, 4 h, added: fluvoxamine and voriconazole): 1.1

O=C(O)CNC(=O)c1cccc(O)c1
plasma concentration (human plasma; mean): 9190 nM

Cc1nc(-c2ccc(OCC(C)C)c(C#N)c2)sc1C(=O)O
AUC(0-24) (human, plasma; oral, 20 mg once daily, added: verinurad 2.5 mg): 2570 ng·h/mL
